Published values gathered from unrelated publications.
Protocols differ between the studies behind these lines. Several values in a cell are separate wells, animals, samples, runs or records. ± gives the spread as reported.
rep main protease: Replicase polyprotein 1ab, main protease (rep, Severe acute respiratory syndrome coronavirus 2, UniProt P0DTD1)
rep nsp12 RdRp: Replicase polyprotein 1ab, nsp12 RdRp (rep, Severe acute respiratory syndrome coronavirus 2, UniProt P0DTD1)
rep papain-like protease: Replicase polyprotein 1ab, papain-like protease (rep, Severe acute respiratory syndrome coronavirus 2, UniProt P0DTD1)
rep nsp3 macrodomain: Replicase polyprotein 1ab, nsp3 macrodomain (rep, Severe acute respiratory syndrome coronavirus 2, UniProt P0DTD1)
rep nsp14 methyltransferase: Replicase polyprotein 1ab, nsp14 methyltransferase (rep, Severe acute respiratory syndrome coronavirus 2, UniProt P0DTD1)

SMILES | target | assay | test system | conditions | scale | endpoint | result
CCc1n[nH]c(NC(=O)c2ccc3c(c2)nnn3C)n1 | rep main protease | protease activity, SAMDI-MS | – | – | – | Hill slope | 1.48
COC(=O)Cn1[se]c2ccccc2c1=O | rep main protease | enzyme activity, inhibitor | – | 40 µM, mean of repeats | – | inhibition | 102%
CCc1ccccc1NC(=S)N/N=C/c1ccc(O)cc1O | rep main protease | thermal shift | – | 20 µM, 2 h | – | melting temperature | 56.1 °C
Nc1ccn([C@@H]2O[C@H](COP(=O)(O)OP(=O)(O)OP(=O)(O)O)[C@@H](O)[C@H]2O)c(=O)n1 | rep nsp12 RdRp | nucleotide incorporation, substrate | – | – | – | Vmax | 0.94 fraction per time
CC(=O)N[C@@H](Cc1ccc(O)cc1)C(=O)N[C@@H](CC(=O)O)C(=O)N[C@H]1CCC[C@@H]1C(=O)N[C@@H](Cc1ccccc1)C(=O)N[C@@H](Cc1ccc(O)cc1)C(=O)N[C@H]1CCC[C@@H]1C(=O)N[C@@H](Cc1ccc(O)cc1)C(=O)N[C@H](C(=O)N[C@H](C(=O)N[C@@H](Cc1ccccc1)C(=O)N[C@@H](Cc1c[nH]cn1)C(=O)N[C@H](C(=O)N[C@@H](C)C(=O)N[C@H](C(N)=O)[C@@H](C)O)C(C)C)[C@@H](C)O)C(C)C | rep main protease | binding, SPR | – | – | – | koff | 0.00373 s⁻¹
CCc1cccc2c(C(=O)NC3CCN(C(=O)C(C)C)CC3)c[nH]c12 | rep main protease | protease activity, SAMDI-MS | – | – | – | Hill slope | 1.77 and 1.78
CNC(=O)C[C@H](Cc1ccc(F)cc1)NC(=O)[C@@H](Cc1ccc(Cl)cc1Cl)NC(=O)[C@H](N)Cc1ccccc1[N+](=O)[O-] | rep main protease | – | – | 0.5229 µM | – | remaining activity | 44%
Cc1ccc(O[C@H]2CCN(C)C2)cc1C(=O)N[C@H](C)c1cc(-c2cnn(C)c2)nc2ccccc12 | rep papain-like protease | reporter gene, cell-based | – | – | – | GFP/mCherry signal ratio | 27.5 and 7.61 and 54.5 and 2.7 and 1.51 and 14.3
CC1(C)C2CCC1(C)C(n1[se]c3ccccc3c1=O)C2 (centres unmarked) | rep main protease | enzyme activity, inhibitor | – | 40 µM | – | inhibition | 99.1%
COc1cc(OC)cc(C(=O)N(CCC(=O)N2CCNCC2)Cc2cccc(Cl)c2)c1 | rep nsp3 macrodomain | thermal stabilisation, differential scanning fluorimetry | – | 300 µM, SARS-CoV-2 | – | ΔTm | 1.67 ± 0.21 °C
O=c1oc2c(O)c(O)ccc2c2cc(O)c(O)cc12 | rep main protease | – | – | – | – | binding efficiency index | 27.6
CC(=O)Nc1ccc(-c2cnc(N3C(=O)CSC3c3cc4ccccc4nc3Cl)s2)cc1 (centres unmarked) | rep papain-like protease | thermal stability, DSF | – | – | – | ΔTm | 8 °C
CCOc1ccc(CN2CC[C@H]2C(=O)NC)cc1-c1cccc(C(=O)NC[C@@H]2COC(C)(C)O2)c1 | rep main protease | 3CL protease activity | – | 1 µM | – | remaining activity | 106%
CC(C)(C)OC(=O)N[C@H]1CCCCC/C=C\[C@@H]2C[C@@]2(C(=O)NS(=O)(=O)C2CC2)NC(=O)[C@@H]2C[C@@H](OC(=O)N3Cc4cccc(F)c4C3)CN2C1=O | rep papain-like protease | protease activity, inhibitor, fluorescence | – | 20 µM, 25 °C | – | remaining activity | no inhibition
CNC(=O)CC1CN(C(=O)c2ccc(C(F)(F)F)cn2)CCN1C(=O)c1cccnn1 (centres unmarked) | rep main protease | – | – | 0.5229 µM | – | remaining activity | 103%
COc1cc(C(=O)O)ccc1C1=NN(c2ccc(C#N)c(Cl)c2)C(C)C1 (centres unmarked) | rep nsp14 methyltransferase | – | – | – | – | lipophilic ligand efficiency | 1.2
Cc1ccc(OCCN(C)C)cc1C(=O)N[C@H](C)c1cc(-c2cccnc2N2CCCC2)nc2ccccc12 | rep papain-like protease | reporter gene, cell-based | – | – | – | GFP/mCherry signal ratio | 55.2 and 0 and 45.9 and 66.3 and 10.2
O=C(Oc1cncc(Cl)c1)c1ccc2cc[nH]c2c1 | rep main protease | inhibitor, biochemical | – | – | – | kinact/Ki | 4400 M⁻¹ s⁻¹

SMILES | target | assay | test system | conditions | scale | endpoint | result
CC1CC(c2ccc(C(=O)O)o2)=NN1c1ccc(C#N)c(Cl)c1 (centres unmarked) | rep nsp14 methyltransferase | – | – | – | – | lipophilic ligand efficiency | 1.4
Cc1ccc(OCCN(C)C)cc1C(=O)N[C@H](C)c1cc(-c2cncs2)nc2ccccc12 | rep papain-like protease | reporter gene, cell-based | – | – | – | GFP/mCherry signal ratio | 0.649 and 0 and -5.54 and 106 and 83.4
CCOc1cccc(NC(=O)CSc2cn(C(=O)OC(C)(C)C)c3ccccc23)c1 | rep nsp12 RdRp | plus- and minus-strand replicon RNA, qRT-PCR | HEK-293T | 10 µM, 24 h | baseline: control | reduction of Gluc RNA | ~80%
O=c1c2cccc([N+](=O)[O-])c2[se]n1Cc1ccccc1 | rep main protease | thermal shift | SARS-CoV-2 | main protease | – | melting temperature | 49 °C
O=C(O)C[C@H](NC(=O)c1ccccc1[Se][Se]c1ccccc1C(=O)N[C@@H](CC(=O)O)C(=O)O)C(=O)O | rep main protease | enzyme activity, inhibitor | – | 40 µM, mean of repeats | – | inhibition | 98.1%
COc1cc(C(=O)N(CCC(=O)N2CCNCC2)Cc2cccc(Cl)c2)cc(OC)c1OC | rep nsp3 macrodomain | thermal stabilisation, differential scanning fluorimetry | – | 300 µM, SARS-CoV-2 | – | ΔTm | 0.22 ± 0.08 °C
CC(NC(=O)c1ccccc1[Se][Se]c1ccccc1C(=O)NC(C)C(=O)O)C(=O)O (centres unmarked) | rep main protease | enzyme activity, inhibitor | – | 40 µM | – | inhibition | 103%
O=C(O[C@@H]1Cc2c(O)cc(O)cc2O[C@@H]1c1cc(O)c(O)c(O)c1)c1cc(O)c(O)c(O)c1 | rep main protease | iodoacetyl biotin labelling | SARS-CoV-2 | increasing concentration | – | free thiol content | decreased
CC(=O)N[C@H](Cc1ccc(O)cc1)C(=O)N[C@@H](CCCNC(=N)N)C(=O)N[C@@H](Cc1ccccc1)C(=O)N[C@H]1CCC[C@@H]1C(=O)N[C@@H](CCCNC(=N)N)C(=O)N[C@@H](CC(N)=O)C(=O)N[C@H]1CCC[C@@H]1C(=O)N[C@H](C(=O)N[C@@H](Cc1ccccc1)C(=O)N[C@H]1CCC[C@@H]1C(=O)N[C@@H](Cc1ccccc1)C(=O)N[C@@H](Cc1ccc(O)cc1)C(=O)N[C@H]1CCC[C@@H]1C(=O)N[C@H](C(=O)N[C@@H](CC(=O)O)C(N)=O)[C@@H](C)O)C(C)C | rep main protease | binding, SPR | – | pH 7.6 | – | kon | 6.52e+07 M⁻¹ s⁻¹
O=C(Oc1cncc(Cl)c1)c1cc2ccccc2[nH]1 | rep main protease | inhibitor, biochemical | – | – | – | kinact/Ki | 7600 M⁻¹ s⁻¹
CNC(=O)C[C@H](Cc1ccc(F)cc1)NC(=O)[C@@H](Cc1ccc(Cl)cc1Cl)NC(=O)[C@H](N)Cc1ccccc1C#N | rep main protease | 3CL protease activity | – | 0.04576 µM | – | remaining activity | 33.5%
COc1ccc(-c2cc(=O)c3c(O)cc(O)c(-c4cc(-c5cc(=O)c6c(O)cc(OC)cc6o5)ccc4OC)c3o2)cc1 | rep main protease | enzyme activity, inhibitor | – | with preincubation | – | kinact | 0.000167 s⁻¹
CC(=O)Nc1ccc(S(=O)(=O)NNc2ncnc3sccc23)cc1 | rep nsp3 macrodomain | thermal stabilisation, differential scanning fluorimetry | – | 150 µM, SARS-CoV-2 | – | ΔTm | 0.68 ± 0.04 °C
CNC(=O)C[C@H](Cc1ccncc1)NC(=O)[C@@H](Cc1cccc(Br)c1)NC(=O)[C@@H](N)Cc1ccsc1 | rep main protease | 3CL protease activity | – | 0.04576 µM | – | remaining activity | 74.7%
NCC(CCC(N)C(=O)O)CC1OC(n2cnc3c(N)ncnc32)C(O)C1O (centres unmarked) | Replicase polyprotein 1ab, nsp16 with nsp10 (rep, Severe acute respiratory syndrome coronavirus 2, UniProt P0DTD1) | nsp10-nsp16 methyltransferase activity, radiometric | – | – | – | Hill slope | 1.2 ± 0.2
CC1CC(c2ccc(C(=O)O)cc2C#N)=NN1c1ccc(C#N)c(Cl)c1 (centres unmarked) | rep nsp14 methyltransferase | – | – | – | – | lipophilic ligand efficiency | 1.7
O=C(NCCc1cccc(F)c1)[C@H](c1cncnc1)N(C(=O)[C@H](F)Cl)c1ccc(S(F)(F)(F)(F)F)cc1 | rep main protease | enzyme activity, inhibitor | – | – | – | kinact/KI | 66 M⁻¹ s⁻¹
